Experimental data pooled from the literature.
± gives the spread as reported.

`CC[C@H](C)[C@H](NC(=O)[C@@H](NC(=O)[C@H](CC(=O)O)NC(C)=O)[C@@H](C)O)C(=O)N[C@@H](CCCNC(=N)N)C(=O)N[C@@H](CC(C)C)C(=O)N[C@@H](CC(C)C)C(=O)N[C@@H](Cc1ccccc1)C(=O)N[C@@H](CCC(N)=O)C(=O)N[C@@H](CC(C)C)C(=O)N[C@@H](CCSC)C(=O)N[C@@H](CCCNC(=N)N)C(=O)N1CCC[C@H]1C(=O)N1CCC[C@H]1C(=O)N[C@@H](CC(N)=O)C(=O)N[C@@H](CCSC)C(=O)N[C@H](C(=O)N1CCC[C@H]1C(=O)N[C@@H](C)C(=O)N[C@H](C(=O)N[C@@H](CC(N)=O)C(=O)N[C@@H](C)C(N)=O)C(C)C)[C@@H](C)O`: “α4β7− CCR9+ cells” 0% (refers to: HA-23 tetramer; antigen-experienced tetramer+ CD4 T cells, healthy adults, HLA-DRB1*0101; dose not given).
With `C[C@]12CC[C@H](O)CC1CCC1C2[C@H](O)C(=O)[C@]2(C)[C@@H](c3ccc(=O)oc3)CC[C@]12O` (some centres unmarked) the Vmax was 0.1 ± 0.002 nmol/min/mg (sulfation, substrate; rabbit liver cytosol).
Under “spleen weight increase suppression”, `CC(C)C[C@@H]1NC(=O)[C@H](C(C)C)NC(=O)[C@H](CO)NC(=O)CNC(=O)CNC(=O)[C@H](CCCNC(=N)N)NC(=O)[C@@H]2CCCN2C(=O)[C@@H](NC(=O)CC[C@H](NC(=O)c2ccc(N(C)Cc3cnc4nc(N)nc(N)c4n3)cc2)C(=O)O)C(C)(C)SSC[C@@H](C(=O)O)NC(=O)CNC(=O)[C@H]([C@@H](C)O)NC(=O)[C@H](C(C)C)NC1=O` is recorded as 49% (rat adjuvant arthritis; intravenous, 1 mg/kg once daily, day 14; reference: arthritis vehicle).
For `CS(C)(=O)=Nc1ccc(-c2ccc(-c3nc4cc(O[C@@H]5CO[C@H]6[C@@H]5OC[C@H]6O)[nH]c4cc3F)cc2)cc1`, plasma triglycerides read “no effect” (ob/ob mouse, AMLN diet NASH model; oral, 5 mg/kg daily, 8 weeks; reference: vehicle).
For `CC(C)C[C@@H]1NC(=O)[C@@H](Cc2c[nH]c3ccccc23)NC(=O)[C@H](CCCCN)NC(=O)[C@@H](Cc2c[nH]cn2)NC(=O)[C@H](CO)NC(=O)[C@@H](Cc2c[nH]cn2)NC(=O)[C@H](CCCCN)NC(=O)[C@@H](Cc2c[nH]c3ccccc23)NC1=O`, “pre-beta HDL concentration” read 68 ± 5 µg/mL (ELISA; human plasma; concentration not given).
`CCCCCCCCCCCCCCCC(=O)N[C@@H](CCC(=O)NCCOCCOCCC(=O)NCCOCCOCCC(=O)NCCCC[C@H](NC(=O)[C@H](CC(=O)O)NC(=O)[C@H](CC(C)C)NC(=O)[C@H](Cc1ccc(O)cc1)NC(=O)[C@H](CCCCN)NC(=O)[C@H](CO)NC(=O)[C@H](Cc1ccc(O)cc1)NC(=O)[C@H](CC(=O)O)NC(=O)[C@H](CO)NC(=O)[C@@H](NC(=O)[C@H](Cc1ccccc1)NC(=O)[C@@H](NC(=O)CNC(=O)[C@H](CCC(N)=O)NC(=O)[C@@H](CO)NC(=O)[C@@H](N)Cc1c[nH]cn1)[C@@H](C)O)[C@@H](C)O)C(=O)N[C@@H](CCCNC(=N)N)C(=O)N[C@@H](CCCNC(=N)N)C(=O)N[C@@H](C)C(=O)N[C@@H](CCC(N)=O)C(=O)N[C@@H](CC(=O)O)C(=O)N[C@@H](Cc1ccccc1)C(=O)N[C@H](C(=O)N[C@@H](CCC(N)=O)C(=O)N[C@@H](Cc1c[nH]c2ccccc12)C(=O)N[C@@H](CC(C)C)C(=O)N[C@@H](CC(C)C)C(=O)N[C@@H](CC(N)=O)C(=O)N[C@H](C(=O)NCC(=O)NCC(=O)N1CCC[C@H]1C(=O)N[C@@H](CO)C(=O)N[C@@H](CO)C(=O)NCC(=O)N[C@@H](C)C(=O)N1CCC[C@H]1C(=O)N1CCC[C@H]1C(=O)N1CCC[C@H]1C(=O)N[C@@H](CO)C(N)=O)[C@@H](C)O)C(C)C)C(=O)O`: “liver granuloma area” “decreased” (Schistosoma japonicum-infected mice; 80 µg/kg/day, 14 days, after praziquantel treatment).
The calcein release of `CC[C@H](C)[C@H](NC(=O)[C@H](Cc1ccccc1)NC(=O)[C@H](CCC(N)=O)NC(=O)[C@H](CCSC)NC(=O)[C@@H](NC(=O)[C@H](CCC(N)=O)NC(=O)[C@H](CCCCN)NC(=O)[C@H](Cc1ccc(O)cc1)NC(=O)[C@H](Cc1ccccc1)NC(=O)[C@H](CCCCN)NC(=O)[C@H](CCCCN)NC(=O)[C@@H](NC(=O)[C@H](Cc1ccccc1)NC(=O)[C@@H]1CCCN1C(=O)[C@H](Cc1c[nH]c2ccccc12)NC(=O)CNC(=O)[C@H](Cc1ccccc1)NC(=O)[C@H](CCCCN)NC(=O)[C@H](C)NC(=O)[C@@H](NC(=O)[C@H](CC(C)C)NC(=O)[C@H](CCCCN)NC(=O)[C@H](C)NC(=O)[C@H](CCCNC(=N)N)NC(=O)[C@H](C)NC(=O)CNC(=O)[C@@H](N)CCSC)C(C)C)[C@@H](C)CC)[C@@H](C)CC)C(=O)NCC(=O)N[C@@H](CCC(N)=O)C(=O)NCC(=O)N[C@@H](Cc1c[nH]c2ccccc12)C(=O)N[C@H](C(=O)N[C@H](C(=O)N[C@@H](CC(=O)O)C(=O)N[C@@H](CCC(N)=O)C(=O)N[C@H](C(=O)N[C@@H](CCC(=O)O)C(=O)N[C@@H](CCCCN)C(=O)N[C@@H](Cc1c[nH]c2ccccc12)C(=O)N[C@@H](CC(C)C)C(=O)N[C@@H](CCCCN)C(=O)N[C@@H](CCCNC(=N)N)C(=O)N[C@@H](Cc1c[nH]cn1)C(=O)O)[C@@H](C)CC)[C@@H](C)CC)[C@@H](C)O` is reported as 24% (PG/PE 1:1 liposomes; MIC; reference: Triton X-100).
`Cc1cc(O)cc(C)c1CC(N)C(=O)NC1CCNc2c1cc(Cc1ccccc1)cc2C(C)(C)C` (centres unmarked): “tail withdrawal latency” 10 s (warm water tail withdrawal; male C57BL/6 mouse; ip, 10 mg/kg, 50 °C, cutoff 20 s).
For `COC[C@@H](NC(C)=O)C(=O)NCc1ccc(OCc2ccccc2F)cc1`, the licking time was 49% (formalin test, phase II; mouse; ip, 7.0 mg/kg; reference: vehicle).
For `Cc1ccc(/C=C/C(=O)O)cc1-c1cc2c(cc1C)C(C)(C)CCC2(C)C`, “log2 fold change” read -0.062 (RNA sequencing, refers to: Nmu; rat, brain; dose not given, 24 h; reference: vehicle).
`Cc1cnc(Nc2ccc(C3CCN(C)CC3)c(F)c2)nc1Nc1ccc(Cl)c(NS(=O)(=O)C(C)(C)C)c1` has a median survival of 87 days (U-266 multiple myeloma, ULK3 knockdown, mice, U-266 xenograft; subcutaneous, 10 mg/kg/day, Mon-Fri from day 20).
Under “free tryptophan fraction”, `O=C(O)CCn1c(=O)oc2cc(Cl)c(Cl)cc21` is recorded as 60% (rat, plasma; dose not given).
`CC[C@H](C)[C@H](NC(=O)[C@H](Cc1c[nH]c2ccccc12)NC(=O)[C@H](CCCNC(=N)N)NC(=O)[C@H](CCCCN)NC(=O)[C@H](CC(C)C)NC(=O)[C@H](CC(=O)O)NC(=O)[C@H](Cc1ccccc1)NC(=O)[C@H](C)NC(=O)[C@H](Cc1ccc(O)cc1)NC(=O)[C@H](CC(N)=O)NC(=O)[C@H](Cc1ccc(O)cc1)NC(=O)[C@H](CCCNC(=N)N)NC(=O)[C@H](Cc1ccc(O)cc1)NC(=O)[C@H](Cc1ccc(O)cc1)NC(=O)[C@@H](NC(=O)[C@H](CC(C)C)NC(=O)[C@H](C)NC(=O)[C@H](CC(N)=O)NC(=O)[C@H](Cc1ccc(O)cc1)NC(C)=O)[C@@H](C)CC)C(=O)N[C@@H](Cc1ccc(O)cc1)C(=O)N[C@@H](CC(C)C)C(N)=O`: “α4β7− CCR9− cells” 29.2% (refers to: HA-51 tetramer; antigen-experienced tetramer+ CD4 T cells, healthy adults, HLA-DRB1*0101; dose not given).
For `CCN(Cc1ccccc1)C(=O)CCc1nc(CN2CCN(C(=O)Cc3ccc(OC)c(OC)c3)CC2)no1`, “action potential amplitude” read 99 ± 1.3 mV (current clamp; L4-L6 DRG neurons, rat CCI model; 3 µM, added: 500 pA current injection).

Repeated from above:
`Cc1cnc(Nc2ccc(C3CCN(C)CC3)c(F)c2)nc1Nc1ccc(Cl)c(NS(=O)(=O)C(C)(C)C)c1` has a median survival of 87 days (U-266 multiple myeloma, ULK3 knockdown, mice, U-266 xenograft; subcutaneous, 10 mg/kg/day, Mon-Fri from day 20).
`Cc1cc(O)cc(C)c1CC(N)C(=O)NC1CCNc2c1cc(Cc1ccccc1)cc2C(C)(C)C` (centres unmarked): “tail withdrawal latency” 10 s (warm water tail withdrawal; male C57BL/6 mouse; ip, 10 mg/kg, 50 °C, cutoff 20 s).
